Measured values gathered from unrelated publications.
Parts stem from different laboratories: compare values within a part only.

Study 1 — technique: protein-binding microarray; molecule type: double-stranded DNA, one strand shown; matrix: in vitro; tested at: 2540 nM top; notes: 60-bp whole probe; added: salmon DNA 0.4 mg/ml; reference: random background probes; direction: higher = stronger binding
Target: Interferon regulatory factor 3, full length, phosphomimetic (IRF3, Homo sapiens, UniProt Q14653, residues 1-427, S386D/S396D/S398D/S402D/T404D/S405D)
Target sequence (chain): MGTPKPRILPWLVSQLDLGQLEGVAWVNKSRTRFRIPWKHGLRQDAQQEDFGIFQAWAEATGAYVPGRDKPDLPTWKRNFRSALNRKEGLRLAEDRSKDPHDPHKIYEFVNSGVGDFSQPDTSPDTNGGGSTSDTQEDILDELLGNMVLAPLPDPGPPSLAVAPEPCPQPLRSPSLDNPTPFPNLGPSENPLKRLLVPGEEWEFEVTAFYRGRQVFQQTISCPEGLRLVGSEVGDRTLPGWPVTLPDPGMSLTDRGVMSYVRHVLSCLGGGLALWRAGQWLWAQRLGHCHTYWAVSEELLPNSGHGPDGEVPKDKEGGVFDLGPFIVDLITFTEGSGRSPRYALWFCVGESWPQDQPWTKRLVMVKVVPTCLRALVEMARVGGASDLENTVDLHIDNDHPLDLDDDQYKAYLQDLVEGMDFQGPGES
`GCCTAGCACTCATTTCTGTGTCACAGACTGTGCTAGGTCTTGATTCGCTTGACGCTGCTG` — result for “fitted relative affinity”: 2.2 z-score.
`GCCTAGCACGACGGACTGGGTATCGGAACGTGCTAGGTCTTGATTCGCTTGACGCTGCTG`: “fitted relative affinity” 0.746 z-score.
`GCCTAGCACGAGGATATCGGGACTGGAGACGTGCTAGTCTTGATTCGCTTGACGCTGCTG`: “fitted relative affinity” -0.381 z-score.

Study 2 — technique: universal PBM; molecule type: double-stranded DNA, one strand shown; matrix: in vitro; tested at: 600 nM; direction: higher = stronger binding
Target: Sal-like protein 4, full length isoform A (SALL4, Homo sapiens, UniProt Q9UJQ4, residues 1-1053)
Chain of UniProt Q9UJQ4 (whole entry, looked up): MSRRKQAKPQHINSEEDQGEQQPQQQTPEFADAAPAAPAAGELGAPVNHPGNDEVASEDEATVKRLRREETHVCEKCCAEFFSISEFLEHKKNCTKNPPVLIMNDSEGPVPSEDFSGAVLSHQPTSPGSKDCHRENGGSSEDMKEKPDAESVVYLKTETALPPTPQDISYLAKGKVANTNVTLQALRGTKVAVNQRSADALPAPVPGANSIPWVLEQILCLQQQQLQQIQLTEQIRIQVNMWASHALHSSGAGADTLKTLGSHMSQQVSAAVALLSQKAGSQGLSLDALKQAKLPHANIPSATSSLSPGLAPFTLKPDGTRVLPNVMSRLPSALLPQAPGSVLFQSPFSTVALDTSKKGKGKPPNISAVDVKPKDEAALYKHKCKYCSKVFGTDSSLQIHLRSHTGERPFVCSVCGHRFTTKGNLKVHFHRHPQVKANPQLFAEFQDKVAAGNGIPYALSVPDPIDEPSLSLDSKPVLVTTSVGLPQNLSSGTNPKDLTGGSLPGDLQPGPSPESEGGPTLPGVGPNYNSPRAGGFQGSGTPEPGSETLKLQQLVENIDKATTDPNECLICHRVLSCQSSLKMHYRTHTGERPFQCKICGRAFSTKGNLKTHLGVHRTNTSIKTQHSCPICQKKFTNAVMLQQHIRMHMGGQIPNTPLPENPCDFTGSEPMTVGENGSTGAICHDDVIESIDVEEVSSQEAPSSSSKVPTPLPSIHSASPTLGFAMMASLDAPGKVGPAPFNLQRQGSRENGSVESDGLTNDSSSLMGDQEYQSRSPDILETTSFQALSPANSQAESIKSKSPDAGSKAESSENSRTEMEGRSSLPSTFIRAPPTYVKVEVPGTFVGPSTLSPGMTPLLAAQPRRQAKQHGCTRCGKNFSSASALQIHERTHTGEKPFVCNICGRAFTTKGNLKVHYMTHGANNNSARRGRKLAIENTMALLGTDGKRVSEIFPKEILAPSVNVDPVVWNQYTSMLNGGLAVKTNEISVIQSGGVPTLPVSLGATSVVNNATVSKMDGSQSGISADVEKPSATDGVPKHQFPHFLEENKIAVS
Notes: 8-mer, flanks averaged, mean of replicates
`TCAAGGGA` has an E-score of -0.0678.
`CTACGGGC` gave an E-score of -0.331.
The E-score of `GCTTAGCA` is reported as -0.054.

Study 3 — technique: protein binding microarray; molecule type: double-stranded DNA, one strand shown; matrix: in vitro; tested at: not given; reference: not given; direction: higher = stronger binding
Target: Histone acetyltransferase KAT6A, winged helix 1, GST fusion (KAT6A, Homo sapiens, UniProt Q92794, residues 1-85)
Notes: 8-mer, flanks averaged, mean of 2 arrays, mostly near background
Construct (chain): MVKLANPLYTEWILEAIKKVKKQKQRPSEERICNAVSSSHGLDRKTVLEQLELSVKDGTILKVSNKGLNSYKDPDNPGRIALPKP
`AGGTTCCA` has an E-score of -0.153.
With `CACAGTCC` the E-score was -0.043.
For `AAGTACAA`, the E-score was -0.0793.

Further values, each from its own experiment
For `PhoQ, residues 284 288 289 292 302 303 AMDMFI`, the fold induction was 1.97 (PhoP, residues 12 14 15 18 19 SPWRL (Escherichia coli, UniProt P23836); Sort-seq, refers to: YFP reporter; E. coli; PhoQ-PhoP variant library, added: 10 µM Mg2+; reference: high Mg2+ state, higher = stronger signaling).

Some of these lines once more (study 2):
`TCAAGGGA` has an E-score of -0.0678.
